Measurements from different studies.
Numbered parts are unrelated; each lists some results of a single study. Positions count from the first letter of the parent shown.

Set 1
Target: UBE2I UBC core domain (UniProt P63279)
Method: yeast two-hybrid
Matrix: yeast
Setting: mostly zero background
Reference: not given
Direction: higher = stronger interaction
B1: TRIM8 RING domain (UniProt Q9BZR9); chain WKNCFEEELICPICLHVFVEPVQLPCKHNFCRGCIGEAWAKDSGLVRCPECNQAYNQKPGLE
B2: ZNF598 RING domain (UniProt Q86UK7); chain AAAPERGGGSCVLCCGDLEATALGRCDHPVCYRCSTKMRVLCEQRYCAVCREELRQVVFGK
B3: TRIM63 RING domain (UniProt Q969Q1); chain PMENLEKQLICPICLEMFTKPVVILPCQHNLCRKCANDIFQAANPYWTSRGSSVSMSGGRFRCPTCRHEVIMDRHGV
B4: PHF21A RING domain (UniProt Q96BD5); chain SPTSTDGDIHEDFCSVCRKSGQLLMCDTCSRVYHLDCLDPPLKTIPKGMWICPRCQDQMLKKEEAIPW
B5: ARK2C RING domain (UniProt Q6ZSG1); chain EGEESDTDEKCTICLSMLEDGEDVRRLPCMHLFHQLCVDQWLAMSKKCPICRVDIETQLGAD
B6: TRIM69 RING domain (UniProt Q86WT6); chain VIQDITMELHCPLCNDWFRDPLMLSCGHNFCEACIQDFWRLQAKETFCPECKMLCQYNNCTF
B7: RNF25 RING domain (UniProt Q96BH1); chain LTDNNIPHGQCVICLYGFQEKEAFTKTPCYHYFHCHCLARYIQHMEQELKAQGQEQEQERQHATTKQKAVGVQCPVCREPLVYDLASL
Sequence	lacZ reporter activity
RLTMMWEEVTCPICLDPFVEPVSIECGHSFCQECISQVGKGGGSVCPVCRQRFLLKNLRP (TRIM21 RING domain (UniProt P19474))	0
YWAMDSTFELCKICAESNKDVKIEPCGHLLCSCCLAAWQHSDSQTCPFCRCEIKGWEAVS (CBLC RING domain (UniProt Q9ULV8))	0
FPEHFVKSISCQICEHILADPVETNCKHVFCRVCILRCLKVMGSYCPSCRYPCFPTDLES (RAG1 RING domain (UniProt P15918))	0
B1 (TRIM8 RING domain)	0
KTLSRFGIQPCSICLGDAKDPVCLPCDHVHCLRCLRAWFASEQMICPYCLTALPDEFSPA (RNF213 RING domain (UniProt Q63HN8))	0
B2 (ZNF598 RING domain)	0
B3 (TRIM63 RING domain)	0
B4 (PHF21A RING domain)	0
B5 (ARK2C RING domain)	0
B6 (TRIM69 RING domain)	0
QLRRLQEERTCKVCMDKEVSVVFIPCGHLVVCQECAPSLRKCPICRGIIKGTVRTF (BIRC2 RING domain (UniProt Q13490))	0
B7 (RNF25 RING domain)	0
VTLSLTLPITCHICLGKVRQPVICINNHVFCSICIDLWLKNNSQCPACRVPITPENPCK (OBI1 RING domain (UniProt Q5W0B1))	0

Set 2
Target: CEBPD, bZIP domain (human)
Method: DHFR protein complementation
Matrix: yeast
Setting: single substitutions, most at no-binding floor
Reference: wild-type JUN-FOS pair
Direction: higher = stronger binding
Starting sequence: JUN, bZIP domain (human); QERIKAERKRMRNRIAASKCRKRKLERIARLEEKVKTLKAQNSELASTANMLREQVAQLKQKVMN; partner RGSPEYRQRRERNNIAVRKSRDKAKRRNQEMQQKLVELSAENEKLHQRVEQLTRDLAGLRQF
Change	binding fitness [natural log]
A46F	-1.32
A46C	-1.45
Q41K	-1.43
Q55V	-1.38
L38V	-1.41
R30W	-1.36
T48C	-1.39
L31I	-1.37
E44L	-1.39
K36A	-1.34
I28N	-1.29
A40V	-1.38
S43G	-1.41
S43T	-1.3
Q55A	-1.45
K36C	-1.28
M51E	-1.35
M51G	-1.39

Set 3
Target: Histone acetyltransferase KAT6A, winged helix 1, GST fusion (KAT6A, Homo sapiens, UniProt Q92794, residues 1-85)
Method: protein binding microarray
Form: double-stranded DNA, one strand shown
Matrix: in vitro
Tested at: not given
Setting: 8-mer, flanks averaged, mean of 2 arrays, mostly near background
Reference: not given
Direction: higher = stronger binding
Residues (chain): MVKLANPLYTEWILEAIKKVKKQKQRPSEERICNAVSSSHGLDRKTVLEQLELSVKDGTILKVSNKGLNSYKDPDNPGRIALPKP
Oligonucleotide	E-score
CCGAAAAG	-0.0838
AATGGGAC	-0.183
ACCCGCGC	0.442
GAAAAGCA	-0.192
AGCTGCCC	0.0705
GAAGTATC	-0.11
CATATTTA	-0.0879
ATTAACGG	0.101
ACAATGGT	-0.0977
AGTCTGTC	-0.203
AAACGGGG	0.184
CGCGGCCA	0.378
AGTCGAAT	-0.191
CGACATGC	0.00728
GCTTGGTA	-0.0445
CGAGGGTA	0.0118
CCACCTGC	-0.207
CCGTGATA	0.216
CTCAGGTA	-0.184
ACATTCGT	-0.178
CCTAAATA	-0.00796
AATATAAT	0.00181
ATCCGTCC	0.172
AGAGAGAA	-0.259
ATCATTCC	-0.0116

Set 4
Target: CCNE2, cyclin fold, Cln2 fusion (human)
Method: yeast growth competition, sequencing
Matrix: yeast
Setting: weak parent motif
Reference: not given
Direction: higher = stronger binding
Starting sequence: PKMYT1 docking peptide (human); SFEPRNLLSLFED; partner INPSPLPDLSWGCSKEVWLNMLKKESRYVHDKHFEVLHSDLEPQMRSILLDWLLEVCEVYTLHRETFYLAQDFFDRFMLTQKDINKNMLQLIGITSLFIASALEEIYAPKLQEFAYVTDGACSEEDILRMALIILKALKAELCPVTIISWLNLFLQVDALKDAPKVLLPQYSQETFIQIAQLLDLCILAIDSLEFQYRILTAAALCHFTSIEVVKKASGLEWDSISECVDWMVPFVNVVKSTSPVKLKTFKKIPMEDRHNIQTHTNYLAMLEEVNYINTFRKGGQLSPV
Change	normalised enrichment score
SFEPRNLLSLFAD [E12A]	0.329
SFEFRNLLSLFED [P4F]	-0.409
SMEPRNLLSLFED [F2M]	0.126
SFEPYNLLSLFED [R5Y]	0.27
SFEPRNALSLFED [L7A]	0.167
SFEPRNLLYLFED [S9Y]	0.664
SFEPRNLLSLFEP [D13P]	0.76
SFEPRNLTSLFED [L8T]	0.39
SFEPRNILSLFED [L7I]	0.151
SFEPRNLLSLPED [F11P]	-0.183
SFEPRNLYSLFED [L8Y]	0.35
SFEPRNYLSLFED [L7Y]	-0.667
FFEPRNLLSLFED [S1F]	0.431
SFEPKNLLSLFED [R5K]	0.709
SFEPRNLLSLFID [E12I]	0.48
SFEPRNKLSLFED [L7K]	0.0649
SFWPRNLLSLFED [E3W]	0.24
SVEPRNLLSLFED [F2V]	-0.436
SFEPRNLLSLFEG [D13G]	0.235
SKEPRNLLSLFED [F2K]	-0.187
SFEPRNLLSLDED [F11D]	-0.307
SFEPRNLWSLFED [L8W]	-0.36
SFEPRNLLSLFDD [E12D]	0.0126
SFENRNLLSLFED [P4N]	-0.656
SFEPRNLLHLFED [S9H]	0.276

Set 5
Target: PABPC1L2, full length, GST fusion (mouse, UniProt A0ABA7IW68)
Method: RNAcompete
Form: RNA
Matrix: in vitro
Tested at: 20 nM
Setting: 7-mer, probes averaged, single round
Reference: mean of 7-mers
Direction: higher = stronger binding
Construct (chain): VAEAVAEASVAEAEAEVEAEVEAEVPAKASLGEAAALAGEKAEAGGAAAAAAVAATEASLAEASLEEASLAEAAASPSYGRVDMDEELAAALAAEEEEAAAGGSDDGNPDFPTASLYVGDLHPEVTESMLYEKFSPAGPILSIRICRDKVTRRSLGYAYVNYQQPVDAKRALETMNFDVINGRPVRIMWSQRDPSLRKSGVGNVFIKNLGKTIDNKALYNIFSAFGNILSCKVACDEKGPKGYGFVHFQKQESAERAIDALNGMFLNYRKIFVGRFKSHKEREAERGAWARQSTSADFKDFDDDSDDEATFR
Oligonucleotide	7-mer Z-score
UGGAUAU	0.106
UAGACCC	-0.11
CGACGCA	-0.0627
CUCAGCC	-0.269
UAGCCGG	-0.0899
GGUUAUU	-0.184
UACCCUU	-0.358
UAGUGGC	0.0315
CCGACCU	-0.237
CAAUUCG	-0.15
GCAGAGG	0.124
CUAUUCG	-0.391
GCGGGUA	0.184
UUUGUGC	-0.378
CGAAGUA	0.0587
UAGCACU	-0.177
AGCUGAC	-0.0409
CGCUUGU	-0.456
AGUUAGU	-0.2
GCACAGA	0.0207

Set 6
Target: RING finger protein unkempt homolog, zinc fingers 1-6, SBP tag (UNK, Homo sapiens, UniProt Q9C0B0, residues 30-357)
Chain of UniProt Q9C0B0 (30-357, looked up): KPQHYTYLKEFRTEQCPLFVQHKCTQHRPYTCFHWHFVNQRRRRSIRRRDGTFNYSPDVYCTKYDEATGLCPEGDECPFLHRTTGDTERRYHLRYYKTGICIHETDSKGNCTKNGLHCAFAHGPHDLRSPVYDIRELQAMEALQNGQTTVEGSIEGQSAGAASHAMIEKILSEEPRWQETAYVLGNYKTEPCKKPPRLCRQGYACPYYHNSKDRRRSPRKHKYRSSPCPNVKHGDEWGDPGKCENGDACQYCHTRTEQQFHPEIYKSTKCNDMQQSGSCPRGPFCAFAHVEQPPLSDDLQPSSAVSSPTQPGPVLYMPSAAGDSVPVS
Method: RNA Bind-n-Seq
Form: RNA
Matrix: in vitro
Tested at: 100 nM
Setting: RNA with constant flanks, vertebrate orthologous sites, ends assumed
Reference: input RNA pool
Direction: higher = stronger binding
All sequences stand within: GGGAGUUCUACAGUCCGACGAUC … CAACAGAGGAUUGAGCAUCA
Oligonucleotide	bound/input enrichment
ACAUCAUGGAUUACUGUCAUUUUGGUAGCAGGUAGAACAUUUUGCAAGAAAUGUAUACACCUAGUUAAGCUGAAUAUGAUAUAUUUUUAUUAGCCUGUAAAUAAAUAUACUCUUCUGCAU	0.682 ratio
UGUGUUUUGGUACGACUCUAUGUACCAAUACUCAUCCUUUUUCAUGAUACCAACUAUCGCUAGAUGUAGGAGUUUAAUAUUUUUAAAAAUUUUACAUUGCUGUAUAUUCAAAAUUUUAAA	0.462 ratio
ACACUUAUAUUGUGGCAUAUAGUCAACAUGGAAGUAGACCAGCUCUGCUGAUUUGAAAUUUAGAUUUUUUAAAUUAUGUACUGGGGACAGGUUUUUGUCGCUUUACAUUGCUUCCUAGUU	2.2 ratio
AAGAUGGUGGUUGUACAUUACUUCAUUUAGAAAAUAUAAAGAUUCAUUUUGUUUUGAAGCUAGGUGUUAAACUGGAAUAGCUAUUAUACCCCAGAGAACGUGGCAAUUGUGCCCUUCCUU	1.22 ratio
GCUCUAGUUCUUAAGAACCAACACUCCUAAAAGAUUUAGAAAAAAGUUUACAACAUAAUCUAGUUUACGAAGAAGCCUUGUGCUAGAAUACUUUUUAAAAAGUAUUUUUGAAUACCAUUA	0.669 ratio
GCCAAGGGACACCCAGCGGGGCAAGGAGCGACCCAAGCCAGCAAAGGUGGGGCAGGAUCGCUGCCAUCUGCGUCGGCCAGGCUGCACUCACUGCCCUGUGCGCCCCUCUGGUGCAAAACC	0.26 ratio
AAGAACAGGAGCAGCAUAGACUGAGCUUUGGGGAAAUGAGCUUUGCUUUUUAUAUUUCAAUAGGAUACUUUUAUAUGAUGGGUGCUUUGAGUGUGAAUGCAGCAGGCUCUCCAUUUCAGA	1.39 ratio
AGCUUCUGGCGACAUUUGGCCUGGCCUUUCAGCAUAUGAUAACAGUCCAAGGUCACCCCAUAGUCCUUCUAUUGCCACCCCACCUAGUCAGAGUUCAUCUUGCUCUGAAGCCCCUUUGCU	0.897 ratio
CCGAAAGGCCAAAUCCCCUCCUCCCUUCUCCUGCUUCUGCCAACCGGAAGCACAGAAAACUAGAACUUCAUUGAUUUUGUUUUUUAAAAGAUACACUGAUUUAACAUCUGAUAGGAAUGC	0.657 ratio
UUGUUUGUUUUGCUUAAGAGUUUGUAUUAAAAGUCUUCGAAGGAAGGAAUAGGGAUACUGUAGCAGUGGUCCCCAGGUGCCUGGCCUCCAGUGCCCCACUUGGAACCACCCUGUCAGGGU	0.284 ratio
AUGCCACCCCAGUUACUGCCACUGCCCACUUCCACAUCUCCUCCUUCACCCUCCUCUUGCACAAAUUAUGUAGGUGUCAAGUGAAUAAAGUGUGUGUGUCAAUGGAGCUGGCCUGUGCAG	0.259 ratio

A few entries again (set 3):
Oligonucleotide	E-score
AATGGGAC	-0.183
ACCCGCGC	0.442
GAAAAGCA	-0.192
AGCTGCCC	0.0705
GAAGTATC	-0.11
CATATTTA	-0.0879
ATTAACGG	0.101
ACAATGGT	-0.0977
AGTCTGTC	-0.203
AAACGGGG	0.184
CGCGGCCA	0.378
AGTCGAAT	-0.191
CGACATGC	0.00728
GCTTGGTA	-0.0445
CGAGGGTA	0.0118
